Measurements collected from several papers.
Values joined by “and” are separate records of one study, mostly repeats; a detail may differ. ± gives the spread as reported.
gag-pol integrase: Gag-Pol polyprotein, integrase (gag-pol, Human immunodeficiency virus 1, UniProt P12497)
RELA: Transcription factor p65 (RELA, Homo sapiens, UniProt Q04206)
CACNA1I: Voltage-dependent T-type calcium channel subunit alpha-1I (CACNA1I, Homo sapiens, UniProt Q9P0X4)
MGLL: Monoglyceride lipase (MGLL, Homo sapiens, UniProt Q99685)
EPHX2: Bifunctional epoxide hydrolase 2 (EPHX2, Homo sapiens, UniProt P34913)
HDAC6: Protein deacetylase HDAC6 (HDAC6, Homo sapiens, UniProt Q9UBN7)
APC: Adenomatous polyposis coli protein (APC, Homo sapiens, UniProt P25054)
Tpo: Thyroid peroxidase (Tpo, Rattus norvegicus, UniProt P14650)

O=C(O)/C(O)=C/C(=O)c1cn(Cc2ccc(F)cc2)c2ccc(F)cc2c1=O  IC50 (gag-pol integrase; strand transfer, inhibitor, gel-based; together with: Mg2+): 0.14 µM
O=C1C(=Cc2ccc(Cl)cc2)C(NC2CCCCC2)c2ccccc21 (stereo not shown)  IC50 (Dual specificity protein phosphatase 6 (Homo sapiens, UniProt Q16828); ERK phosphorylation restoration, inhibitor, chemical complementation; HeLa transfected with c-Myc-DUSP6; 15 min, together with: TPA): 37.8 ± 11.8 µM
C=CC(C)(C)c1cc(C(=O)c2c(-c3cc(-c4cc5cc(C(C)(C)C=C)c(O)cc5oc4=O)c(O)cc3O)oc3cc(O)ccc23)c(O)cc1O  IC50 (RELA; NF-κB activity, inhibitor): 0.006 µM
COC(=O)C1=C(C)NC(C)=C([N+](=O)[O-])[C@H]1c1ccccc1C(F)(F)F  IC50 (CACNA1I; inhibitor, FLIPR calcium; HEK293 with GCaMP6s-CAAX, Kir2.3; together with: KCl at EC90): 16 µM
C=CC(C)(CO)c1cc2cc(-c3ccc(O)cc3O)c(=O)oc2cc1O (stereo not shown)  IC50 (RELA; NF-κB activity, inhibitor): 0.23 µM
O=P(O)(O)Oc1cc(-c2cc(OP(=O)(O)O)c(OP(=O)(O)O)c(OP(=O)(O)O)c2)cc(OP(=O)(O)O)c1OP(=O)(O)O  IC50 (Inositol polyphosphate-5-phosphatase A (Homo sapiens, UniProt Q14642); enzyme activity, inhibitor; together with: Ins(1,4,5)P3 1.0 µM): < 1 µM and 0.73 µM
CCn1[c](=[Au-2]([Cl])([Cl])[Cl])n(CC)c2ccccc21  IC50 (trxB (Escherichia coli, UniProt P0A9P4); enzyme activity, inhibitor, absorbance; with preincubation): 0.27 µM
O=C(OC(C(F)(F)F)C(F)(F)F)N1CCC(Cn2ccc3ccccc32)CC1  IC50 (MGLL; enzyme activity, inhibitor): 0.55 µM
NC(=O)[C@@H]1CC[C@@H]2CN1C(=O)N2OS(=O)(=O)O  IC50 (PA3047 (Pseudomonas aeruginosa, UniProt Q9HZG1); binding, Bocillin FL competition; Pseudomonas aeruginosa 1771 membranes; PBP 4, together with: Bocillin FL 100 µM): 41.5 µM
O=c1cc(-c2ccccc2)oc2cc(O)c(O)c(O)c12  IC50 (lipoxygenase; enzyme activity, inhibitor; pH 8.0, 25 °C, together with: linoleic acid): 22.2 ± 0.09 µM
C=CCc1ccc(O)c(-c2cc(CC=C)ccc2O)c1  IC50 (mitochondrial complex I; complex I-dependent oxygen consumption rate, inhibitor; A-375; 24 h): 62 µM
C[C@@H](CNCc1ccccc1)N1C[C@H](CCCNC(=N)N)N(CCc2cccc(F)c2)C1=S  IC50 (nicotinic acetylcholine receptor; binding, radioligand displacement): > 1 µM
O=C1C=CC(O)(c2nc3ccccc3s2)C=C1  IC50 (Thioredoxin-dependent peroxidase 2 (Trypanosoma brucei, UniProt D6XK31); inhibitor): 15.6 ± 1.3 µM
N#Cc1ccc2c(ccn2CCC2CCN(C(=O)OC(C(F)(F)F)C(F)(F)F)CC2)c1  IC50 (MGLL; enzyme activity, inhibitor): 0.7 µM
CCCN(CCC)c1ccc(C=O)cc1  IC50 (ALDH1A1 (Homo sapiens, UniProt P00352); enzyme activity, inhibitor; pH 8.4): 0.13 µM
O=C(CCCCCCNC(=O)[C@H]1CCCN(C(=O)c2ccc(NC(=O)Nc3ccc(OC(F)(F)F)c(Cl)c3)c(F)c2)C1)NO  IC50 (EPHX2; enzyme activity, inhibitor, fluorescence): 0.0003 µM
O=C(/C=C/c1ccc(O)cc1)CC(=O)/C=C/c1ccc(O)cc1  IC50 (HSD3B2 (Homo sapiens, UniProt P26439); enzyme activity, inhibitor; KGN cell homogenate; lower bound from 100 µM screen, together with: pregnenolone): < 100 µM
O=c1c(O)c(-c2ccc(O)c(O)c2)oc2cc(O)cc(O)c12  IC50 (firefly luciferase; ADP-Glo ADP processing, luminescence counter-screen; cell-free, no kinase; up to 77 µM, together with: ADP 1.25 µM, ATP 11.25 µM): no inhibition
CN(C)c1ccc(-c2ccc(Cn3cccc(O)c3=S)cc2)cc1  IC50 (HDAC6; enzyme activity, inhibitor, SAMDI mass spectrometry): > 10 µM
Cn1ccnc1C(=O)C1CC1c1ccc(CC(=O)Nc2ccc(Br)cc2)cc1 (stereo not shown)  IC50 (HDAC6; enzyme activity, inhibitor): > 200 µM
O=C(NNC(=O)c1ccc(CNS(=O)(=O)c2ccc(F)c(Cl)c2)cc1)c1ccccc1  IC50 (Glutamate NMDA receptor; Grin1/Grin2a (Grin1/Grin2a, Rattus norvegicus, UniProt P35439+Q00959, V783S); ion current, two-electrode voltage clamp; oocytes): 0.66 µM
C[C@]12CC3CC(Nc4c(Nc5ccc(C(=O)N6CCC[C@H](C(=O)NCCCCCC(=O)NO)C6)cc5)c(=O)c4=O)(C1)C[C@@](C)(C3)C2  IC50 (EPHX2; enzyme activity, inhibitor, fluorescence): 0.41 µM
O=C(COc1ccccc1Cl)Nc1cc(Br)ccc1C(=O)O  IC50 (TRPM4 (Homo sapiens, UniProt Q8TD43); ion flux, inhibitor, fluorescence): 1 µM
[Cl-].[Cl-].[Zn+2]  IC50 (HVCN1 (Homo sapiens, UniProt Q96D96, D185A/H193A); proton current, inhibitor, whole-cell voltage clamp; human cells; pH 6.5, test pulse 140 mV): 135 µM
CC(C)C[C@H](NC(=O)[C@H](Cc1ccc2ccccc2c1)NC(=O)[C@H](CCC(=O)O)NC(=O)CN1CCOCC1)C(=O)NC1CC1c1ccccc1 (stereo partly shown)  IC50 (APC; ligand displacement, FP): 190 µM
OC1CCCc2c(OCc3ccccc3)cccc21 (stereo not shown)  IC50 (MAOB (Homo sapiens, UniProt P27338); enzyme activity, inhibitor, fluorescence): 5.05 µM
CCc1c(Cl)c(O)c(Cl)c(O)c1C(=O)O[C@H]1[C@H](O)[C@H](OC)[C@H](OC/C2=C\C=C\C[C@H](O)/C(C)=C/[C@H](CC)[C@@H](O[C@@H]3OC(C)(C)[C@@H](OC(=O)C(C)C)[C@H](O)[C@@H]3O)/C(C)=C/C(C)=C/C[C@@H]([C@@H](C)O)OC2=O)O[C@@H]1C  IC50 (Organic solute transporter subunit alpha, with OSTβ (SLC51A, Homo sapiens, UniProt Q86UW1); DHEAS uptake, inhibitor; Flp-In 293 overexpressing OSTα/β; 30 s, together with: DHEAS 4 µM): 169 µM and < 200 µM
O=P(O)(O)OC[C@H](O)CO  IC50 (Intelectin-1 (ITLN1, Homo sapiens, UniProt Q8WWA0); binding, competitor, biolayer interferometry; together with: human intelectin-1 binding immobilised β-Galf): 2100 µM
CN(C)[C@@H]1C(O)=C(C(N)=O)C(=O)[C@@]2(O)C(O)=C3C(=O)c4c(O)cccc4[C@@](C)(O)[C@H]3[C@H](O)[C@@H]12  IC50 (UBASH3B (Homo sapiens, UniProt Q8TF42); enzyme activity, inhibitor, fluorescence): 3.6 µM
COc1ccc(-c2cn(CC3CC3)c3ncnc(N)c23)cc1OC  IC50 (CDPK1 (Plasmodium falciparum, UniProt P62344); enzyme activity, inhibitor): 0.589 µM and 0.588 µM
O=C(Nc1cc(F)c(F)c(F)c1Br)c1cc(S(=O)(=O)N2CCOCC2)c(Cl)cc1Cl  IC50 (LPAR2 (Homo sapiens, UniProt Q9HBW0); Ca2+ mobilization, antagonist; MEF; together with: LPA at EC50): > 100 µM
C=C(C)CCOP(=O)(O)OP(=O)(O)OP(=O)(O)OC[C@H]1O[C@@H](n2cnc3c(N)ncnc32)[C@H](O)[C@@H]1O  IC50 (MAP3K12 (Homo sapiens, UniProt Q12852); enzyme activity, inhibitor, HotSpot kinase; together with: ATP 1 µM): 3.4 µM
Nc1ccn([C@H]2CC[C@@H](COP(=O)(O)OP(=O)(O)OP(=O)(O)O)O2)c(=O)n1  IC50 (POLA1 (Bos taurus, UniProt A0AAA9THK8); enzyme activity, inhibitor, radiometric): 1200 µM
CCOC(=O)/C(O)=C/C(=O)c1cn(Cc2ccc(F)cc2)c2ccc(F)cc2c1=O  IC50 (gag-pol integrase; strand transfer, inhibitor, gel-based; together with: Mg2+): 0.44 µM
CCC(C)Oc1nc(N)nc(N)c1C#N (stereo not shown)  IC50 (PIK3CD (Homo sapiens, UniProt O00329); enzyme activity, inhibitor): 10 to 20 µM and 12 µM and 14 µM
C[C@@H](CC(=O)NCc1cccc2ccccc12)NC(=O)[C@H](CC(=O)NC(C)(C)C)NC(=O)CCc1ccccc1  IC50 (Proteasome component C5/PSMB5 (Homo sapiens, UniProt P20618+P28074); chymotrypsin-like activity, inhibitor; together with: suc-LLVY-AMC): 76 ± 25.6 µM
O=C(Nc1cccc(-c2nnc(C3CCCCC3)o2)c1)C1CCCC1  IC50 (α-amylase; enzyme activity, inhibitor): 5.25 µM
O=C(O)c1cc2cc(Br)ccc2c(Br)c1O  IC50 (Glutamate NMDA receptor; Grin1/Grin2c (Rattus norvegicus, UniProt P35439+Q00961); ion current, two-electrode voltage clamp; oocytes): 5.04 µM
O=S(=O)(Nc1cccc(-c2nnc(C3CCCCC3)o2)c1)c1cc(Cl)cc(Cl)c1  IC50 (α-amylase; enzyme activity, inhibitor): 3.27 µM
O=C(Nc1cc(C(=O)Nc2ccc(S(=O)(=O)O)cc2S(=O)(=O)O)cc(C(=O)Nc2ccc(S(=O)(=O)O)cc2S(=O)(=O)O)c1)Nc1cc(C(=O)Nc2ccc(S(=O)(=O)O)cc2S(=O)(=O)O)cc(C(=O)Nc2ccc(S(=O)(=O)O)cc2S(=O)(=O)O)c1  IC50 (Transcription factor Sp1 (Homo sapiens, UniProt P08047); DNA binding, inhibitor, TR-FRET; together with: FAM-labelled oligonucleotide 100 nM): 0.0247 µM
CCCNC(=N)NCCC[C@H](N)C(=O)O  IC50 (Nitric oxide synthase 3 (Rattus norvegicus, UniProt Q62600); cGMP accumulation; rat aortic rings; 25 min preincubation, together with: acetylcholine 10 µM): 4.3 µM and 4 µM
O=C(O[C@@H]1Cc2c(O)cc(O)cc2O[C@@H]1c1cc(O)c(O)c(O)c1)c1cc(O)c(O)c(O)c1  IC50 (Tpo; enzyme activity, inhibitor, LC-MS/MS, measured: monoiodotyrosine; rat thyroid microsomes; together with: L-tyrosine substrate): 0.39 µM and 0.31 µM
CC(=O)N[C@@H](CSC/C=C(\C)CC/C=C(\C)CCC=C(C)C)C(=O)O  IC50 (Bifunctional epoxide hydrolase 2, N-terminal phosphatase domain (EPHX2, Homo sapiens, UniProt P34913); N-terminal phosphatase activity; human; 10 min preincubation, together with: AttoPhos 15 µM): 3.4 µM
CC(C)(C)CCN1C[C@@H]2C(CNC(=O)c3cc(Cl)cc(Cl)c3)[C@@H]2C1 (stereo partly shown)  IC50 (CACNA1I; inhibitor, FLIPR calcium; HEK293 with GCaMP6s-CAAX, Kir2.3; together with: KCl at EC90): 0.077 µM
CSc1ncc(C(=O)N[C@@H](CCC(=O)O)C(=O)N[C@@H](Cc2ccc3ccccc3c2)C(=O)N[C@@H](CC(C)C)C(=O)NC2CC2c2ccccc2)cn1 (stereo partly shown)  IC50 (APC; ligand displacement, FP): 68.8 µM
O=C(CCCCCCNC(=O)[C@H]1CCCN(C(=O)c2ccc(NC(=O)Nc3ccc(OC(F)(F)F)c(F)c3)c(F)c2)C1)NO  IC50 (EPHX2; enzyme activity, inhibitor, fluorescence): 0.0002 µM
CC(C)NCc1ccc(C[C@@H]2NC(=O)[C@H](N(C)C(=O)c3ccc4ccccc4c3)NC(=O)[C@H](Cc3ccccc3)NC(=O)[C@@H](N)CSSC[C@@H](C(N)=O)NC(=O)[C@H](Cc3ccc(O)cc3)NC2=O)cc1  IC50 (SSTR1 (Homo sapiens, UniProt P30872); ligand displacement, radioligand; cell membranes): 0.631 µM
O=c1ccn([C@@H]2O[C@H](COP(=O)(O)OP(=O)(O)OP(=O)(O)O)[C@@H](O)[C@H]2O)c(=O)[nH]1  IC50 (inositol pyrophosphate kinase Vip1, CTP-swap V2 (Trichoderma virens, UniProt Z9USF9BXN2); 5'-deoxyadenosine formation, inhibitor, LC-MS; pH 7.5, together with: 1 mM deuterated CTP, 1 mM SAM): > 9900 µM
CC[C@H](c1ccc(O)cc1)[C@@H](CC)c1ccc(O)cc1  IC50 (Tpo; enzyme activity, inhibitor, LC-MS/MS, measured: monoiodotyrosine; rat thyroid microsomes; together with: L-tyrosine substrate): 7.19 µM and 10.7 µM
COc1cc2ncnc(Nc3ccc(Cl)cc3F)c2cc1OC  IC50 (SRC (Homo sapiens, UniProt P12931); enzyme activity, inhibitor, ADP detection): 0.33 µM
O=C(ON1C(=O)CCC1=O)N1CC(N2CCN(C(=O)c3nccs3)CC2)C1  IC50 (Monoglyceride lipase (Rattus norvegicus, UniProt Q8R431); enzyme activity, inhibitor; with preincubation): 0.0275 µM
O=C(OC(C(F)(F)F)C(F)(F)F)N1CCC(Cn2ccc3cccc(F)c32)CC1  IC50 (MGLL; enzyme activity, inhibitor): 0.58 µM

Repeated from above:
O=C1C=CC(O)(c2nc3ccccc3s2)C=C1  IC50 (Thioredoxin-dependent peroxidase 2 (Trypanosoma brucei, UniProt D6XK31); inhibitor): 15.6 ± 1.3 µM
N#Cc1ccc2c(ccn2CCC2CCN(C(=O)OC(C(F)(F)F)C(F)(F)F)CC2)c1  IC50 (MGLL; enzyme activity, inhibitor): 0.7 µM
CCCN(CCC)c1ccc(C=O)cc1  IC50 (ALDH1A1 (Homo sapiens, UniProt P00352); enzyme activity, inhibitor; pH 8.4): 0.13 µM
